# Experimental data from different studies.
# Numbered parts are unrelated; each lists some results of a single study. Positions count from the first letter of the parent shown.

# Sample 1
# Target: CDC34 UBC core domain (UniProt P49427)
# Technique: yeast two-hybrid
# Matrix: yeast
# Setting: mostly zero background
# Reference: not given
# Direction: higher = stronger interaction
# B1: MKRN2 RING domain (UniProt Q9H000); chain FAFQASQDKVCSICMEVILEKASASERRFGILSNCNHTYCLSCIRQWRCAKQFENPIIKSCPECRVISEFVIPSV
# B2: TRIM60 RING domain (UniProt Q495X7); chain ALVNLQEESSCPICLEYLKDPVTINCGHNFCRSCLSVSWKDLDDTFPCPVCRFCFPYKSFRR
# B3: ANAPC11 RING domain (UniProt Q9NYG5); chain GICRMAFNGCCPDCKVPGDDCPLVWGQCSHCFHMHCILKWLHAQQVQQHCPMCRQEWKFKE
# B4: TRIM54 RING domain (UniProt Q9BYV2); chain SMDNLEKQLICPICLEMFSKPVVILPCQHNLCRKCANDVFQASNPLWQSRGSTTVSSGGRFRCPSCRHEVVLDRHGV
# B5: RNF187 RING domain (UniProt Q5TA31); chain ALPAGPAEAACALCQRAPREPVRADCGHRFCRACVVRFWAEEDGPFPCPECADDCWQRAVEP
# B6: TRIM26 RING domain (UniProt Q12899); chain PLRSLEEEVTCSICLDYLRDPVTIDCGHVFCRSCTTDVRPISGSRPVCPLCKKPFKKENIRP
# B7: RLIM RING domain (UniProt Q9NVW2); chain SFGENDALKTCSVCITEYTEGNKLRKLPCSHEYHVHCIDRWLSENSTCPICRRAVLASGNRE
# Residues (chain): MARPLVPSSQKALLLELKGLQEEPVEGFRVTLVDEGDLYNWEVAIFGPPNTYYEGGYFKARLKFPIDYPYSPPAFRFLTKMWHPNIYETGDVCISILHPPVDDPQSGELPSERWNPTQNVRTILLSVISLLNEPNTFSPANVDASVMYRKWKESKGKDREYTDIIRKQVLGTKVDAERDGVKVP
Molecule,lacZ reporter activity
B1 (MKRN2 RING domain),0
B2 (TRIM60 RING domain),0
FVKTVEDKYKCEKCHLVLCSPKQTECGHRFCESCMAALLSSSSPKCTACQESIVKDKVF (TRAF3 RING domain (UniProt Q13114)),0
B3 (ANAPC11 RING domain),0
B4 (TRIM54 RING domain),0
QVQSRTKIEECVVCSDKKAAVLFQPCGHMCACENCANLMKKCVQCRAVVERRVPFI (MIB1 RING domain (UniProt Q86YT6)),0
B5 (RNF187 RING domain),0
MNDVLENELQCIICSEYFIEAVTLNCAHSFCSYCINEWMKRKIECPICRKDIKSKTYSL (RNF8 RING domain (UniProt O76064)),0
B6 (TRIM26 RING domain),0
B7 (RLIM RING domain),0

# Sample 2
# Target: CREBZF, bZIP domain (human)
# Technique: DHFR protein complementation
# Matrix: yeast
# Setting: single substitutions, most at no-binding floor
# Reference: wild-type JUN-FOS pair
# Direction: higher = stronger binding
# Parent: JUN, bZIP domain (human); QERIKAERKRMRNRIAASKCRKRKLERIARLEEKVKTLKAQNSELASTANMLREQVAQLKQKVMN; partner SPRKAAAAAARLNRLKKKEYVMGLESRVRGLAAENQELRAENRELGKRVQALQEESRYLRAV
Substitution,binding fitness
A29T,-1.35 natural log
L38V,-1.51 natural log
L38K,-1.5 natural log
N42C,-1.42 natural log
A40T,-1.36 natural log
A46P,-1.43 natural log
A49L,-1.5 natural log
E32A,-1.4 natural log
K39D,-1.23 natural log
Q55R,-1.51 natural log
A57L,-1.47 natural log
T37K,-1.48 natural log
A46Q,-1.31 natural log
R30K,-1.25 natural log
K36M,-1.41 natural log
L31M,-1.41 natural log
T48L,-1.36 natural log

# Sample 3
# Target: RING finger protein unkempt homolog, zinc fingers 1-6, GST-SBP tag (UNK, Homo sapiens, UniProt Q9C0B0, residues 30-357)
# Technique: RNA Bind-n-Seq
# Molecule type: RNA
# Matrix: in vitro
# Tested at: not given
# Setting: RNA with constant flanks, human-mouse chimeric sites, ends assumed
# Reference: input RNA pool
# Direction: higher = stronger binding
# Constant ends, left off below: GGGAGUUCUACAGUCCGACGAUC … CAACAGAGGAUUGAGCAUCA
# Target sequence (chain): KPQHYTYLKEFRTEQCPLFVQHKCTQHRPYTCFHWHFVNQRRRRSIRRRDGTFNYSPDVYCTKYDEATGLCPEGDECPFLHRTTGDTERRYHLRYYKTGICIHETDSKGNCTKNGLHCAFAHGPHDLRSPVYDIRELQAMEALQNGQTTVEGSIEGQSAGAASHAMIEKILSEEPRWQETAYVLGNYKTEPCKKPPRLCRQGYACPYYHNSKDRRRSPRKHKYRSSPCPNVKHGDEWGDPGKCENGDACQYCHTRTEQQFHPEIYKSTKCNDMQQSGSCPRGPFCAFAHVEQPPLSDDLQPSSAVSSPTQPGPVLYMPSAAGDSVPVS
Strand,bound/input enrichment [ratio]
AAAAUAGACUAUGGCGAGUACAUGGAUAAAAAUAAUGUGAGGCGGCAAGCAACAACAAUCAUAGCUGAUAACAUUAUAUUUCUGAGUGACCAGACAAAAGAAAAGGCAUAGAACGGAUGA,2.46
CACACACUCUUCUGCGGGACCCUCAUCUUGCAGGCCCGAGCCUACGUGGGACCGCACGUCCUGGCAGUGGUGACCCGGACAGGGUUCUGCACGGCAAAAGGGGGCCUGGUGAGCUCCAUC,0.06
UCUGAGGUACCACUGAAGAGACCUUAAAAGAAUCAUUUGAGGGCUCUGUUCGUGCAAGAAUAGUCACUGAUCGGGAAACUGGUUCUUUCCAAAGGGUUGGUUUUGUAGACUUUAAUAGUG,0.991
CUCUUUGAAUCAUUCAAGAGUUUUGAAGGUCUCUUUUAUUUUCUGGGGUCCAUUGUUAACUUUAGCCAGGACCCAGAUGUGCACUUUAAAUAUAUUCAGGCAGCUUGCAAGACUGGGCAA,0.322
CACGUGUCUGCAGUGCUUGAUGUGGACUACUCUCCCACUGGGAAGGAAUUUGUGUCUGCCAGCUUUGAUAAGUCUAUUCGAAUCUUUCCUGUGGACAAGAGCCGAAGCAGGGAAGUGUAU,0.349
ACAGUUAUACACUGUUGUUUCAUUUUCAUAUAUUCUUGUAGUGUCUGCUUGCCUGUGACUUCUGGUAAAAUAAAAUAUUAAAAUUACAAUAUUUUAGCAUGGUAUUUAACAUUUUCUAAA,1.73
GCUCUUGGGAAUGUAAUCAGCGCCUUGGGAGACAAGAGCAAGAGGGCCACCCAUGUCCCUUACAGAGACUCUAAGCUGACAAGACUCUUGCAGGAUUCCCUUGGGGGUAACAGCCAAACC,0.113
GGCUGCUGGUGACUGUCCUGGAGUGGCUGGAGUUCCCGCCGGAGCGCGCGCAGGUUAAUUUUAGAAAAUGCCAAGUAGGAAAUUUGCUGAGGGUGAAGUGGUCAGAGGCCGAUGGCCUGG,4.2

# Sample 4
# Target: CCNA2, cyclin fold, Cln2 fusion (human)
# Technique: yeast growth competition, sequencing
# Matrix: yeast
# Setting: strong parent motif
# Reference: not given
# Direction: higher = stronger binding
# Parent: RB1 docking peptide (human); PKPLKKLRFDIEG
Substitution,normalised enrichment score
G13W,1.41
G13H,1.09
K5D,-0.211
R8W,-0.0356
G13E,1.77
F9V,0.535
F9K,0.875
P1M,0.445
P1H,1.31
I11Y,1.08
L4G,1.55
P1D,0.706
P3Q,0.449
K5I,0.328
R8E,1.14
K6L,0.669
G13C,3.09
G13A,1.16
K5C,0.253
D10E,0.255
K6W,1.57
L4T,0.994
P1G,0.689

# Excerpt of the above (sample 4):
Substitution,normalised enrichment score
K5C,0.253
P3Q,0.449
G13A,1.16
G13H,1.09
G13E,1.77
